# Measured values gathered from unrelated publications.
# Numbered parts are unrelated; each lists some results of a single study. “And” joins repeats or separate records; there may be more than shown.
# Sequence of UniProt P08173 (whole entry, looked up): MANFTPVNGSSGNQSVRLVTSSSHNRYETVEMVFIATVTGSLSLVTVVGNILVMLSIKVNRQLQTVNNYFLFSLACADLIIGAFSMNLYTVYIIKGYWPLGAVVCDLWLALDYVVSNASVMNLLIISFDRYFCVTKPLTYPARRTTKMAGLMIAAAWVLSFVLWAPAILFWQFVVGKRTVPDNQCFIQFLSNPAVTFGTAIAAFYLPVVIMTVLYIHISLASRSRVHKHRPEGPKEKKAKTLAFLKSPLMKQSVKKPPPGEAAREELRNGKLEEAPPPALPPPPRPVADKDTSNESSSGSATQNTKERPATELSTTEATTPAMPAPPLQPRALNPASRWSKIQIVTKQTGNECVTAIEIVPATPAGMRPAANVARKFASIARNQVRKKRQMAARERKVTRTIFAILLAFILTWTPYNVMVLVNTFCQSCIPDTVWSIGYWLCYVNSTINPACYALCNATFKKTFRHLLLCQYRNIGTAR

# Study 1
# SMILES: CNC(=O)c1ccc(-c2cnn3ccc(C(=O)N(C)c4ccc(Cl)c(C(=O)OC)c4)cc23)cc1
# Organism: Cryptosporidium parvum
# Method: time-kill
# Strain: nanoluciferase-expressing
# Reference: DMSO
tested at,time,luminescence
9 nM,72 h,15.3% and 30.6%
9 nM,8 h,86.4% and 75.2%
81 nM,24 h,32.4% and 27.8%

# Mixed results
Structure (SMILES),target or system,assay,test system,setting,how to read,quantity,value
CNC(=O)c1cc(C(=O)NC2CC2)cn(Cc2ccccc2)c1=O,normal-adjacent epithelium patient-derived organoids sample H,CellTiter-Glo,,1 µM,reference: DMSO,viability,82%
CCOc1ccc(Nc2c3c(nc4ccccc24)CCC3)cc1,RAW264.7,resazurin,,0.32 µM,,cytotoxicity,-8% and -6%
CN[C@@H]1C[C@H]2O[C@@](C)([C@@H]1OC)n1c3ccccc3c3c4c(c5c6ccccc6n2c5c31)C(=O)NC4,normal-adjacent epithelium patient-derived organoids sample H,CellTiter-Glo,,1 µM,reference: DMSO,viability,0.9%
Cc1sc2c(c1C)C(c1ccc(Cl)cc1)=NC(CC(=O)OC(C)(C)C)c1nnc(C)n1-2 (stereo not drawn),mouse MPNST tumor cells,"high-content immunofluorescence imaging, item: nuclear SOX9",,"10 µM, 12 h, mean of 2 replicates","reference: DMSO control, higher = more nuclear SOX9",nuclear SOX9 intensity,124 % of DMSO
Cc1c(N2CCNCC2)nc2ccc(Br)cc2c1C(=O)NC[C@H](CCC(=O)O)c1ccccc1Cl,"CHRM4 (Homo sapiens, UniProt P08173)",ligand displacement,,10 µM,,inhibition,16.2%
Cc1cc(NC(=O)c2cccc(S(F)(F)(F)(F)F)c2)cc(-n2ccn3nc(-c4cccnc4)cc23)c1,normal organoid sample D,CellTiter-Glo,human,"1 µM, 4 days",reference: DMSO,viability,98.2% and 98.8%
